Experimental data of several laboratories.
Numbered parts are unrelated; each lists some results of a single study. Substitutions count along the parent as printed.

Series 1
Target: PABPC1L2, full length, GST fusion (mouse, UniProt A0ABA7IW68)
Technique: RNAcompete
Molecule type: RNA
Sample: in vitro
Concentration: 20 nM
Setting: 7-mer, probes averaged, single round
Relative to: mean of 7-mers
Reading: higher = stronger binding
Construct (chain): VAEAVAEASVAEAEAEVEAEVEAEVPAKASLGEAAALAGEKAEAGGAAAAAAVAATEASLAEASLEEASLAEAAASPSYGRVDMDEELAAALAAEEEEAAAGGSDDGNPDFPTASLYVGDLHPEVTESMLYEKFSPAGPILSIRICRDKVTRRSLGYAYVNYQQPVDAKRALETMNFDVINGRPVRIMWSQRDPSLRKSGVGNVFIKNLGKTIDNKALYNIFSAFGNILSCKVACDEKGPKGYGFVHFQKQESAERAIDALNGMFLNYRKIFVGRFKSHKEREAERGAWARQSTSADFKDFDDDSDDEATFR
| Sequence | 7-mer Z-score |
| --- | --- |
| GGACGUC | -0.0554 |
| UACCAUA | 0.0261 |
| AAGGGAC | 0.356 |
| GACAACU | -0.00108 |
| GACGUAC | -0.144 |
| UAGCCGA | -0.079 |
| AUCCGCG | -0.287 |
| UCGGGAA | 0.0569 |
| GAUAACU | -0.137 |
| GGUAGUU | -0.351 |
| UUACGUC | -0.269 |
| GUGCCGG | -0.106 |
| AGACUAA | 0.144 |
| AGCUGAG | 0.00979 |
| ACUUAUG | -0.188 |
| CAUGUGG | 0.00798 |
| UGAUUCC | -0.164 |
| UUUCAUA | -0.211 |
| UAUUCGG | -0.197 |
| CUAAUCC | -0.362 |
| CGGCAUG | -0.148 |
| CAGACAA | 0.396 |

Series 2
Target: Sal-like protein 4, full length isoform B (SALL4, Homo sapiens, UniProt Q9UJQ4-2, residues 1-616)
Technique: universal PBM
Molecule type: double-stranded DNA, one strand shown
Sample: in vitro
Concentration: not given
Setting: 8-mer, flanks averaged, mean of replicates
Reading: higher = stronger binding
| Sequence | E-score |
| --- | --- |
| AACCTCTA | 0.124 |
| CAAAACCA | 0.168 |
| ATCTACCA | 0.177 |
| CGCGAACC | -0.274 |
| CGCACCCG | -0.319 |
| CCATGTCC | -0.195 |
| AATACTCA | 0.251 |
| ATCCCCGC | -0.306 |
| CCTAGCGA | -0.228 |
| AAATACAA | 0.384 |
| CGGTAATC | -0.0705 |
| TAGCTTCA | 0.111 |
| AATTCAGC | -0.0626 |
| TCGAGTCA | -0.137 |
| CATTGACA | 0.0956 |
| CTACAAAC | 0.0323 |
| ATGGACTG | -0.092 |
| AGGTTGGC | -0.0981 |
| AGGCCAAA | -0.0617 |
| GAGTTTTA | 0.107 |
| AAGGTTAG | 0.0631 |
| CCTGAATC | 0.0609 |

Series 3
Target: RNA binding protein fox-1 homolog 2, RRM domain, GST-SBP tag (RBFOX2, Homo sapiens, UniProt O43251-10, residues 100-194)
Technique: RNA Bind-n-Seq
Molecule type: RNA
Sample: in vitro
Concentration: 365 nM
Setting: natural RNA segment, single round, ends assumed
Relative to: no-protein control
Reading: higher = stronger binding
Target sequence (chain): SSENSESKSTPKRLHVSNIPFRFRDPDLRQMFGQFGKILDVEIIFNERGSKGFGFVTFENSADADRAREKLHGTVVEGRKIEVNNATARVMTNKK
| Sequence | RBNS enrichment (R) |
| --- | --- |
| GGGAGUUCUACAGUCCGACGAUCACUUUGAAAGAUAACAUUUUAUUAUGAUGGUGCUAGGUAAAAAAUUGUAAAGACUGGGAUGGUUGUGUGGAAAACUUUUCUUGAGAGAACCUAUUGAAAGGAAUUUGUUGUGGAAUUCUCGGGUGCCAA | 0.939 |
| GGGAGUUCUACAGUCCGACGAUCUCCUGUGCUGUGUCUGUACUCAGCCAUGUGUGUUUUGUCUGCUGUCUGUCUUCUGAGGCUUAGCAUCUGUCAGGGCUGGGGUUGGUUCAGCCCUUGGUACUCCAGAUGUGUGGAAUUCUCGGGUGCCAA | 0.628 |
| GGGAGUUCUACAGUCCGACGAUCCACCUUACCUUGUCAUGCCACCCCAGGAGUAGAAGCUGGGUAAGGCCCCAUCAUCCUGACCAUCUCUGUUCAUAUGCCCAAGGUGCUAGAAUUAGCUUAGGAGAGAUGCAUGGAAUUCUCGGGUGCCAA | 0.92 |
| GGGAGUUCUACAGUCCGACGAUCUGUCUGGGUCAUUCAGGCAGUACAUCUGAAUUAAGCUGAAUGUAGACAAAUAAAGAAAAACAAAACUGCGCCCGUCUUAGGCCUGGGUGUCUGACCCACCAGCAGUGCAAUGGAAUUCUCGGGUGCCAA | 0.382 |
| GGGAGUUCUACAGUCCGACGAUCGGACUACAGGGGUGCACUACCACACCGGGUUGAAUUUUUUUUUAAUUUUAGUAGAGAUGAAGUGUCACUAUGUUACCAAGGCUGGUCUCAAACUCCUAAACUCAGAUGAUUGGAAUUCUCGGGUGCCAA | 0.249 |
| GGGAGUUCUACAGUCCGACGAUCUGUGCUAUCCGCAGGAACCGCGAGAUGGUCUAAGUCAGCUUACAUCCCUGAGCAGGAAAGUUUACCCAUGAAGAUUGGUGGGAUUUUUUGUUUGUUUGUUUUGUUUUGUUUGGAAUUCUCGGGUGCCAA | 1.53 |
| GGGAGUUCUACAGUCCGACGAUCUGGAAGCCAAAUGUACUCAUGAAAACAGCCACUCCUAUUCUGAGUCUUGGUUUCUUCACCUAGAAAGUGAGGGUUUGGACUAGAUGAGUGGCUUUCAGGGUGUUCUGUGAUGGAAUUCUCGGGUGCCAA | 0.239 |
| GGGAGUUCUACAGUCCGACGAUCCUGCCUUCCUUGCCCUCACUGUUCUGGGGUGGGGGACAUCCCCGGGGAUCCCUGAGAAGAGUGUCCUUUAGAAAGCUAGGCAGAUGUGGAUUGCUGCUAGGAGAGUGACCUGGAAUUCUCGGGUGCCAA | 0.612 |
| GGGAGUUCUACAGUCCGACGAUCUAAGUGCCCUGAGGCGCUCUGUACUAGAAACUGCUCUUAAUAAUAACGGUGAUUAUUGGUUGCUGCAUUGCUGUUGUAUGGCUCUUGAGUCUUCCUGAGUUUGUGUCCAGUGGAAUUCUCGGGUGCCAA | 15.1 |
| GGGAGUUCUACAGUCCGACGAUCUCUCUCCCCUCACUGGUAUGGGUUCAGAGCAAUGCCUAGGGCCCCUCUCUGCUCCCCUGCCUAGUGGGGUGGUAGUGGCUACCUCUCAGCCCCAAUAGUCCCUGCUCCUCUGGAAUUCUCGGGUGCCAA | 0.298 |
| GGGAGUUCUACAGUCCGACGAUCUGCAGAGAGCAAUGAUAGCAAAUAACGUACGAAUGUUUUACAUCAAAGGACAUCCACAUCAGUUGGAAGACUUUGAGUUUUGUUCUUAGGAAACCCACUUUAGUUGAAUGUGGAAUUCUCGGGUGCCAA | 1.27 |
| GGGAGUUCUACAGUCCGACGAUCCCGUUGGCCAACAGCCCUUUCACUUACCAUCCCUGCCUCCCCCGUCCUGUUCCCUUUGACUUCAGCUGCCUGAAACAGCCAUGUCCAAGUUCUUCACCUCUAUCCAAAGGUGGAAUUCUCGGGUGCCAA | 0.507 |

Series 4
Target: CCNA2, cyclin fold, Cln2 fusion (human)
Technique: yeast growth competition, sequencing
Sample: yeast
Setting: strong parent motif
Relative to: not given
Reading: higher = stronger binding
Parent: WEE1 docking peptide (human); HKTFRKLRLFDTP
| Substitution | normalised enrichment score |
| --- | --- |
| HNTFRKLRLFDTP [K2N] | 1.78 |
| HKTFRKLRLFDEP [T12E] | 1.66 |
| HKTFRKLRLFDTN [P13N] | 2.19 |
| HKTRRKLRLFDTP [F4R] | 2.57 |
| HKTFRKLRCFDTP [L9C] | 1.02 |
| HKHFRKLRLFDTP [T3H] | 2.66 |
| SKTFRKLRLFDTP [H1S] | 2.39 |
| HKTFRKLWLFDTP [R8W] | 2.87 |
| HTTFRKLRLFDTP [K2T] | 1.82 |
| HKTFRKLILFDTP [R8I] | 1.8 |
| HKTERKLRLFDTP [F4E] | 0.741 |
| HKTFRKLRFFDTP [L9F] | 2.33 |
| HKTFRKLRRFDTP [L9R] | 0.669 |
| HKVFRKLRLFDTP [T3V] | 2.77 |
| HKTFRKLRLFDSP [T12S] | 2.03 |
| HKTFRKLRYFDTP [L9Y] | 2.39 |
| HKTFRKLRLFDTF [P13F] | 0.873 |
| HDTFRKLRLFDTP [K2D] | 0.712 |
| HKTFRKGRLFDTP [L7G] | 2.2 |
| HATFRKLRLFDTP [K2A] | 1.41 |
| HKTTRKLRLFDTP [F4T] | 1.67 |
| HMTFRKLRLFDTP [K2M] | 1.33 |
| HKTFRKLRLFDTK [P13K] | 1.67 |
| HKTFRTLRLFDTP [K6T] | 0.72 |
| HKTFRKIRLFDTP [L7I] | 2.34 |

Series 5
Target: Histone acetyltransferase KAT6A, winged helix 2, GST fusion (KAT6A, Homo sapiens, UniProt Q92794, residues 85-181)
Technique: protein binding microarray
Molecule type: double-stranded DNA, one strand shown
Sample: in vitro
Concentration: not given
Setting: 8-mer, flanks averaged, mean of 2 arrays, mostly near background
Relative to: not given
Reading: higher = stronger binding
Construct (chain): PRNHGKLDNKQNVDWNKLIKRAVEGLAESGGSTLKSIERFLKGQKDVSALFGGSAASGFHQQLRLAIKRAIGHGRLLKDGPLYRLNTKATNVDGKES
| Sequence | E-score |
| --- | --- |
| GCGAGTGA | 0.188 |
| GAGAACCA | -0.0102 |
| TAAGGGTA | -0.139 |
| AGACATCT | -0.0632 |
| ACCCATCA | -0.131 |
| TATCAAAA | 0.0899 |
| CGGAACCG | -0.022 |
| CGTTTATA | 0.0394 |
| GCCCCGGC | 0.165 |
| TGTTGAAA | -0.0246 |
| GTACTATA | -0.166 |
| AAGACTCA | -0.238 |
| CCCCGAAC | 0.0767 |
| GGCCCCTA | -0.144 |
| CTTCAGGC | 0.0258 |
| ACGCAAAT | -0.0411 |
| CCTTTAGA | -0.154 |
| CAATTCGG | -0.0969 |
| ACTTTGAT | -0.0143 |

Series 6
Target: Prothrombin, mature alpha-thrombin (F2, Homo sapiens, UniProt P00734)
Technique: aptamer microarray, sandwich
Molecule type: DNA with 2'F-ANA
Sample: in vitro
Concentration: 200 nM
Setting: whole 15-mer aptamer, many near background
With: Cy3 exosite-II aptamer, 400 nM
Reading: higher = stronger binding
Sequence: GGTTGGTGTGGTTGG
| Modification | mean fluorescence intensity |
| --- | --- |
| 2'F-ANA at 2 6 8 11 14 | 130 a.u. |
| 2'F-ANA at 5 8 9 10 14 | 43.5 a.u. |
| 2'F-ANA at 1 2 5 6 7 9 10 11 12 14 15 | 65.8 a.u. |
| 2'F-ANA at 4 5 9 10 11 12 14 15 | 46.4 a.u. |
| 2'F-ANA at 2 3 4 5 6 9 10 12 13 14 | 53.7 a.u. |
| 2'F-ANA at 5 6 7 8 9 10 11 12 13 14 15 | 53.3 a.u. |
| 2'F-ANA at 1 2 3 4 6 7 9 10 11 12 | 62.3 a.u. |
| 2'F-ANA at 1 4 5 8 11 13 | 49.7 a.u. |
| 2'F-ANA at 4 5 6 8 10 11 | 48.6 a.u. |
| 2'F-ANA at 1 3 8 10 11 12 | 137 a.u. |
| 2'F-ANA at 1 4 5 6 9 13 14 15 | 49 a.u. |
| 2'F-ANA at 1 2 3 4 5 9 | 60.7 a.u. |
| 2'F-ANA at 2 3 7 8 9 10 11 14 | 268 a.u. |
| 2'F-ANA at 6 7 8 9 10 12 13 | 159 a.u. |
| 2'F-ANA at 1 2 4 5 6 7 9 13 | 57.6 a.u. |
| 2'F-ANA at 5 11 12 13 15 | 97.9 a.u. |
| 2'F-ANA at 2 3 5 6 7 12 15 | 198 a.u. |
| 2'F-ANA at 1 4 5 6 9 10 13 14 15 | 46.2 a.u. |
| 2'F-ANA at 2 3 7 8 10 12 13 | 413 a.u. |
| 2'F-ANA at 1 6 8 9 10 11 12 15 | 64.4 a.u. |
